Assay results from different studies.
Every numbered part comes from another study and shows a few of its results, in no order.

Set 1 — method: protein-binding microarray; form: double-stranded DNA, one strand shown; medium: in vitro; tested at: 250 nM; notes: 60-bp whole probe; together with: salmon DNA 0.4 mg/ml; reference: random background probes; reading: higher = stronger binding; endpoint: log fluorescence; shared flanks, not repeated: GCCTAGCAC … GTCTTGATTCGCTTGACGCTGCTG
Target: Interferon regulatory factor 7, full length, phosphomimetic (IRF7, Homo sapiens, UniProt Q92985, residues 1-503, S101K/S471D/S472D/S475D/S476D/S477D/S483D/S484D/S487D)
Construct (chain): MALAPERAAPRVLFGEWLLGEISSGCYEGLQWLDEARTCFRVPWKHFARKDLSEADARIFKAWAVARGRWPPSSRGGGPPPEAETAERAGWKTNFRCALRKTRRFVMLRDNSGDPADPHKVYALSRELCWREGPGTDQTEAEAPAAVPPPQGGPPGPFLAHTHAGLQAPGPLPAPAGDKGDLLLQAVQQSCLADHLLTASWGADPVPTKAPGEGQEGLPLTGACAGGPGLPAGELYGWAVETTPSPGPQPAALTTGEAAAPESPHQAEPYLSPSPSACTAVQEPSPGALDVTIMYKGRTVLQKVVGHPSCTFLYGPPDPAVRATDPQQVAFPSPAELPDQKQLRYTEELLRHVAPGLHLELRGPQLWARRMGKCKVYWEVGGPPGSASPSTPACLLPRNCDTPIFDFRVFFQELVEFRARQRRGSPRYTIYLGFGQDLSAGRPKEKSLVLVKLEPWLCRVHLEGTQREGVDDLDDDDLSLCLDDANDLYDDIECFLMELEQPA
TTAGATAGCAGACTGGATTAGTGCTAG: -0.401 z-score
TTAGGTTTCCTTTTCCTGTAGTGCTAG: 6.68 z-score
GACGATTTCGGGTATCGAGCCGTGCTA: 0.45 z-score
TTAGGTCTCCTTTACCTTTAGTGCTAG: 0.697 z-score
GAAGGTATCGGACTGGGGACGTGCTAG: -0.222 z-score
TCAGCTCTGCGGTTCAGACTGTGCTAG: -0.801 z-score

Set 2 — method: protein binding microarray; form: double-stranded DNA, one strand shown; medium: in vitro; tested at: not given; reference: not given; reading: higher = stronger binding; endpoint: E-score
Target: Histone acetyltransferase KAT6A, winged helix 1, GST fusion (KAT6A, Homo sapiens, UniProt Q92794, residues 1-85)
Notes: 8-mer, flanks averaged, mean of 2 arrays, mostly near background
Construct (chain): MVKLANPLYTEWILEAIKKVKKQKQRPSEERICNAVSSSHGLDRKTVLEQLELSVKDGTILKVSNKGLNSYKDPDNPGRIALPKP
CTGACAGA: -0.0792
ATCTCTCA: -0.0799
AGCGCCTA: 0.191
TACGCTCA: 0.067
GGAACTTA: 0.0331

Set 3 — method: protein-binding microarray; form: double-stranded DNA, one strand shown; medium: in vitro; tested at: 0.8 µM; notes: whole 60-bp probe, no competitor; reading: higher = stronger binding; endpoint: fluorescence intensity; shared flanks, not repeated: … GTCTTGATTCGCTTGACGCTGCTG
Target: Centromere-binding protein 1, full length, N-terminal tag (CBF1, Saccharomyces cerevisiae, UniProt P17106, residues 1-351)
UniProt P17106, sequence (whole entry, looked up): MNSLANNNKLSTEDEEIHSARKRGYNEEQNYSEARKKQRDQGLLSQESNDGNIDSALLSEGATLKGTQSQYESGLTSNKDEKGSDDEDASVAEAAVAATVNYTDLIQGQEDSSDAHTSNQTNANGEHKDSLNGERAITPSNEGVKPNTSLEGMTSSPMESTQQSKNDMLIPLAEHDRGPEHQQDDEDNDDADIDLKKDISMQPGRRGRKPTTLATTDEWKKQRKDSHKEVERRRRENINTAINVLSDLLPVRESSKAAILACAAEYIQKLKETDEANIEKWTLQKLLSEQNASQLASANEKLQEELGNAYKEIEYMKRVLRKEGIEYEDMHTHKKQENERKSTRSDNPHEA
CCTAACTACTATATTCTGATGCCATAGCTTCGTACA: 523 a.u.
CTAATGACAATTGTACACGTTGAAACGGAATTATTC: 539 a.u.
TGTACGAAGCTATACAAACACGTTATAGTAGTTAGG: 581 a.u.
CTAACTTGAAGTTACGATGTGACATAAATTTGTTTC: 569 a.u.
GAATGTAATCAATTGCATGTGCCAAGGATGATCTAG: 693 a.u.
CTATCACTTTCTGGGCACGATTGTAATAATACTTTC: 610 a.u.

Other studies, line by line
PhoQ, residues 284 288 289 292 302 303 SLSLLA
fold induction (PhoP, residues 12 14 15 18 19 SYFRT (Escherichia coli, UniProt P23836); Sort-seq, item: YFP reporter; E. coli; PhoQ-PhoP variant library, together with: 10 µM Mg2+; reference: high Mg2+ state, higher = stronger signaling): 4.45

Some of these lines once more (set 1):
TTAGATAGCAGACTGGATTAGTGCTAG: -0.401 z-score
